Published values of several laboratories.
A part holds a random share of what one study measured.

Set 1
Target: Prothrombin, mature alpha-thrombin (F2, Homo sapiens, UniProt P00734)
Method: aptamer microarray, sandwich
Form: DNA with 2'F-ANA
Matrix: in vitro
Tested at: 200 nM
Setting: whole 15-mer aptamer, many near background
Together with: Cy3 exosite-II aptamer, 400 nM
Reading: higher = stronger binding
Strand: GGTTGGTGTGGTTGG
Modification | mean fluorescence intensity
2'F-ANA at 1 3 4 8 9 10 | 74.1 a.u.
2'F-ANA at 1 2 5 6 8 9 11 13 14 | 46.3 a.u.
2'F-ANA at 1 3 4 7 8 11 12 15 | 405 a.u.
2'F-ANA at 1 3 5 8 10 12 15 | 50.8 a.u.
2'F-ANA at 1 2 3 4 7 9 10 11 12 14 15 | 50.2 a.u.
2'F-ANA at 1 2 3 5 12 14 | 46.3 a.u.
2'F-ANA at 1 4 5 6 9 14 | 56.4 a.u.
2'F-ANA at 3 8 10 12 13 14 | 430 a.u.
2'F-ANA at 2 3 4 5 8 9 11 15 | 143 a.u.
2'F-ANA at 1 2 4 5 8 10 11 13 15 | 48.5 a.u.
2'F-ANA at 1 2 3 4 6 7 9 10 11 13 15 | 107 a.u.
2'F-ANA at 1 8 9 | 217 a.u.
2'F-ANA at 1 4 8 9 10 12 15 | 58.3 a.u.
2'F-ANA at 2 3 4 7 8 10 11 12 14 | 192 a.u.
2'F-ANA at 1 2 3 4 5 9 11 12 13 | 77.8 a.u.
2'F-ANA at 1 3 4 8 10 | 85.9 a.u.

Set 2
Target: Ras GTPase-activating protein-binding protein 1, full length (G3BP1, Homo sapiens, UniProt Q13283)
Chain of UniProt Q13283 (whole entry, looked up): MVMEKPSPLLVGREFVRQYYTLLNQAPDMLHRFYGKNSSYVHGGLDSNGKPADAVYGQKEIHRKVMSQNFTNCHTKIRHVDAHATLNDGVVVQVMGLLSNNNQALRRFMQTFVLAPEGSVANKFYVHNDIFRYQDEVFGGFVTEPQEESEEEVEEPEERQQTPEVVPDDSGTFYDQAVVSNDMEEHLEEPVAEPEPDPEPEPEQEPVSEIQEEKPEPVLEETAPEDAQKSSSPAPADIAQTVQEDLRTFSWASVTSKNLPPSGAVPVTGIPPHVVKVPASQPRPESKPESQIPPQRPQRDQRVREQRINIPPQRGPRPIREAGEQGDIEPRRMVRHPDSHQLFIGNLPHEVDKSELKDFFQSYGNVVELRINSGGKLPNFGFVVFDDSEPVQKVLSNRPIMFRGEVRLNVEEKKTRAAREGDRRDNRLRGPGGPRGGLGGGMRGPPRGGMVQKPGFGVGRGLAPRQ
Method: RNA Bind-n-Seq
Form: RNA
Matrix: in vitro
Tested at: 200 nM
Setting: whole 134-nt RNA, ends assumed
Together with: 150 mM KCl
Relative to: input library
Reading: higher = stronger binding
Strand | log2 enrichment
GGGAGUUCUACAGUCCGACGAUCUGCUUGUUCUGGAGUGAUCUUCUGACUGGAAAAGAACUAUGUCAUGGAUCAAGGAAGGAGAGCUGUCACUUUGGGAGCGGUUCUGUGCCAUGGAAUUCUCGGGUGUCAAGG | 0.714
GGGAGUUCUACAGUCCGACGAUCAAGUCCUGUGCUACACAUCGUAUGUACCGAAUCGGCCCCGGGGCCCCGGCCCCGGGAAAGUAUUAUGUUACGCCGUUCGGAUCUGCACUUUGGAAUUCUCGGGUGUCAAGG | -1.28
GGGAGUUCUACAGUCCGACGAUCUCAAGUCCUGUGCUACACAUCGUAUGUACCGAAUCGGGUUUGGUUUGGGGUUUGGAAAGUAUUAUGUUACGCCGUUCGGAUCUGCACUUCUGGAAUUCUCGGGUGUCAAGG | -0.625
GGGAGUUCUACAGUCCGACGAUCAAGUCCUGUGCUACACAUCGUAUGUACCGAAUCGGUUUUGGGGUUUUGGUUUUGGGAAAGUAUUAUGUUACGCCGUUCGGAUCUGCACUUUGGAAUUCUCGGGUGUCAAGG | -1.1
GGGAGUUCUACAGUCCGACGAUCCUGUGCUACACAUCGUAUGUACCGAAUCGGGUUUUUUUGGGUUUUUUUGGGUUUUUUUGGGAAAGUAUUAUGUUACGCCGUUCGGAUCUGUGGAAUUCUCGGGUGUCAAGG | -1
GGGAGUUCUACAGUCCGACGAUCUGCUGUUCAGGUGGUGGAGAAGAAGAUGGAACCCCAGGCUGCCUGGCUACAGAGCCUGGAGGGAUGCAUGUGGACAGCCAAGAAGAAGCUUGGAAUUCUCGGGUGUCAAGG | -1.66
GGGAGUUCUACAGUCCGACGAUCACCAUGCAGGCGGGCAUCUUUGGGAAGUGGGGCAAGGGGGGGAUAGGGAGGGGGGUAACACUUUGGGAACAGGUGGUCCCAGGUCGUUUCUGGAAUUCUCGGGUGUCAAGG | 1.62
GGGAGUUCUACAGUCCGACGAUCUUGGAUGAAGAUGGCAAAGUCCUGACCCCGGAGGAGCUGCUCUACCGGGUAAGGGGGCCUCCUCUGCCAGACCCUAGAGACCUCUCUGGGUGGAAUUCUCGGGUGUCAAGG | -0.95
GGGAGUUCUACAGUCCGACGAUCUCAAGUCCUGUGCUACACAUCGUAUGUACCGAAUCGGAAGGGGAAGGGGAAGGGAAAGUAUUAUGUUACGCCGUUCGGAUCUGCACUUCCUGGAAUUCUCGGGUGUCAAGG | 1.04
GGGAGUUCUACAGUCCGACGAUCUAACUUUAGAGGAGGAUCUGAUGGAUAUGGCACUGGACGUGGAUUUGGGGAUGGCUAUAAUGGGUAUGGAGGAGGACCUGGAGGUGGCAAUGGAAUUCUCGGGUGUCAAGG | 0.48
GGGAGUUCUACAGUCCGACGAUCAGUCCUGUGCUACACAUCGUAUGUACCGAAUCAAACCCAAACCCAAAUUUUUUUAAAAAAGUAUUAUGUUACGCCGUUCGGAUCUGCACUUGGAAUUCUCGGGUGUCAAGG | -0.597

Set 3
Target: Histone acetyltransferase KAT6A, both winged helices, GST fusion (KAT6A, Homo sapiens, UniProt Q92794, residues 1-181)
Method: protein binding microarray
Form: double-stranded DNA, one strand shown
Matrix: in vitro
Tested at: not given
Setting: 8-mer, flanks averaged, mean of 2 arrays, mostly near background
Relative to: not given
Reading: higher = stronger binding
Target sequence (chain): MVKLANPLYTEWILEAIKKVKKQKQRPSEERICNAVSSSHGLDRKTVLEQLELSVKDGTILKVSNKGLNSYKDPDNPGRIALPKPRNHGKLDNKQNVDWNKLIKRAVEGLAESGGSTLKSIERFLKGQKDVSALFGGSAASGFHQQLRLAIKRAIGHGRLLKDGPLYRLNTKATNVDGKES
Strand | E-score
GGGATCAC | -0.0908
CGCCTGAG | 0.121
AAGAACAG | -0.0702
CGTTAATA | 0.12
CTTAACGA | -0.113
CAAAAATA | -0.0855
GGGTCGAA | -0.154
CGCTTAAG | 0.214
AATGCAGA | -0.0554
CGAGATCA | -0.0378
GATGTATA | -0.109
CGTATACC | 0.00015
AACGATCC | -0.0481
AGAGTCTA | -0.138

Set 4
Target: Interferon regulatory factor 3, full length, phosphomimetic (IRF3, Homo sapiens, UniProt Q14653, residues 1-427, S386D/S396D/S398D/S402D/T404D/S405D)
Chain of UniProt Q14653 (whole entry, unmodified, looked up): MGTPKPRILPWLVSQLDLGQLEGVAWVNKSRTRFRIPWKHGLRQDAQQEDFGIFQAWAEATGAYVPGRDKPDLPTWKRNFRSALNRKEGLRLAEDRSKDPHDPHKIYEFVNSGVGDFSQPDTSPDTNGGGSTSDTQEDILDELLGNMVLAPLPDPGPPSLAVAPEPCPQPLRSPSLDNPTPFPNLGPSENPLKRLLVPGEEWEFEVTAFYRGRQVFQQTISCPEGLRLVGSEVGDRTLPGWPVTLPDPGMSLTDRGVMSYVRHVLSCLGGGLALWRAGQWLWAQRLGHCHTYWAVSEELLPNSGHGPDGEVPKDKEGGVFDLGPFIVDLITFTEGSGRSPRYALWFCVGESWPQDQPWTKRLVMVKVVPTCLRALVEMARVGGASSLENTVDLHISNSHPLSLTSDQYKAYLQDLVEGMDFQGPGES
Method: protein-binding microarray
Form: double-stranded DNA, one strand shown
Matrix: in vitro
Tested at: 2540 nM top
Setting: 60-bp whole probe
Together with: salmon DNA 0.4 mg/ml
Relative to: random background probes
Reading: higher = stronger binding
Shared flanks, not repeated: GCCTAGCAC … GTCTTGATTCGCTTGACGCTGCTG
Strand | fitted relative affinity
TCAAGAATGGGGTTTGCAACTGTGCTA | -0.708 z-score
TCATGTGTTACTTTCTAACTGTGCTAG | 1.72 z-score
GACGGTTTCGCTCTCGGGACGTGCTAG | 6.67 z-score
GACGATTTCAGTATCGGGACGTGCTAG | 2.8 z-score
GACGGTATCGATTTTCGGGACGTGCTA | 3.01 z-score
TTAGGTATCTGTATCGGTTAGTGCTAG | 2.93 z-score
GACGGTATCGGAATCGGGACGTGCTAG | 4.51 z-score
TTAGGTATCCTACTGGTTTAGTGCTAG | 2.62 z-score
TTAGATTCCAGTTTCGATTTGTGCTAG | 6.38 z-score
TTAGGACTGGACACTGGGTTTGTGCTA | -0.857 z-score
GACGATCTCAGTATCCAGACGTGCTAG | 1.49 z-score
TCAACTCTCAGAATCTCACTGTGCTAG | 0.531 z-score
TTAGATTTTAGTTTCGATTAGTGCTAG | 5 z-score

Set 5
Target: RNA binding protein fox-1 homolog 2, RRM domain, GST-SBP tag (RBFOX2, Homo sapiens, UniProt O43251-10, residues 100-194)
Method: RNA Bind-n-Seq
Form: RNA
Matrix: in vitro
Tested at: 365 nM
Setting: natural RNA segment, single round, ends assumed
Relative to: no-protein control
Reading: higher = stronger binding
Construct (chain): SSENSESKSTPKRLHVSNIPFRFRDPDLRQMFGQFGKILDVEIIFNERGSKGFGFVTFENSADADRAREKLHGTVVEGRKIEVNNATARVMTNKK
Strand | RBNS enrichment (R)
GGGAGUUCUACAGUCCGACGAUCUUGAAUAUCAGGAGGGACUUUCUACGCCCUGGUGACUUCACGUUGGAAGCCGGGUCUUGCGAGCUGGAGAAAUGGACUGGAUGAGGGCUCUAGGGGUGGGCUGUUUACACUGGAAUUCUCGGGUGCCAA | 0.753
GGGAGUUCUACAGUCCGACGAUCGUCCCUGUCCAGGGCCCCGGCUUGGUUUCCAAGUGUAAAUACCGCCUCGCGCCUCAAAUCCCCCUACCCCGUGUGAACUCUAGGGCAUCGGACCUCAAGGGGUUAACUGGUGGAAUUCUCGGGUGCCAA | 0.245
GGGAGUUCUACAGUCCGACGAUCCCAAAGUCUUUCCCAGCACCUCUUGUAUUCAUUAUCAAAUAUAUACAUGUAAGUUUGAAGUAUUACUGUUUUCUCAGCAUGAAUUAAAAAUAUUCUGUAACUCAGCCAGGUGGAAUUCUCGGGUGCCAA | 1.23
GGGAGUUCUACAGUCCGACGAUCCGGCAGACGCCGGUAGAUAGUCCAGAUGACACAGCCCUCAGUGAGAGUGCCAACCAAGCCUUCCUGGGCUUUACAUAUGUGGCACCUUCUGUCCUGGACAGCAUCAAAGAUGGAAUUCUCGGGUGCCAA | 0.855
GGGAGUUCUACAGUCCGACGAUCAAUCAAAAAUAUUUUUGUGAGGGAGUCGGUCCCAGGCAGUUUGAUGCUCUGUGGAAGGAGGCGGGAAGGGAACGUUGGCCAAGUCAGUUACUGAGAUGAAGAUCGCCCAGUGGAAUUCUCGGGUGCCAA | 0.567
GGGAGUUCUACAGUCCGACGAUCGAAUUUGUAUUGCUUGAUAAACUAUUAGCUUGUAAAUUAAAAUUUUUUUCUUUACCUCAGUUAACUUAAGUAAUGGACCAAUAAACCUAUCAAAGCUGCUUCAUUUCUUCUGGAAUUCUCGGGUGCCAA | 0.729
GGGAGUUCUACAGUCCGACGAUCCCAUUCAAUCUUCCCCACUAGGGGUUAUCAUUGGCAAUGGACGAGCUGAAGAUUUUGGAGCCUAUCCAUGGUUCAGGGCAGUAGAACUGGCUUCCUCUAUGGAUGCUUCCUGGAAUUCUCGGGUGCCAA | 0.183
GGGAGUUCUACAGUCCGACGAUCAUUUCACCUACUAUUUCUGAAUAUAUUUUGCAAAUUGAAUUGGAAUAGGAAUUGAUAAUAGCAGUCUUAAACAUUAGUAGUGGGAUUUGGCUAUGGUCCAGACUGUGCUCUGGAAUUCUCGGGUGCCAA | 0.407
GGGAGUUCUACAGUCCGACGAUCAAUUACCUCCCCCUGGGUCUGUCCCACAACACGUGGGAAUUCUGGGAGAUACAAUUCAAGUUGAGAUUUGUGGGGGGACACAACCAAACCAUAUCAGCAUCCUUUCAAGAUGGAAUUCUCGGGUGCCAA | 0.541
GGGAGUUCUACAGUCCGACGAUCGUGGGGCGGGGAAGUGCUCUAACUUUUCUUAAGGUUUUGUUGCUAGCCCUUCAAGUGCACUGAGCUAUGUGACUCGGAUGGUCUUUCACACGGCACAUUUGGACAUUUCCUGGAAUUCUCGGGUGCCAA | 0.295
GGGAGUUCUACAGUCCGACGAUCUUUAAAAAGCAAAAUUAUAGAAGUUUAGAUUUUAAUCAAAUUUGUAGGGUUUCUAGGUAAUUUUUACAGAAUUGCUUGUUUGCUUCAACUGUCUCCUACCUCUGCUCUUGUGGAAUUCUCGGGUGCCAA | 0.82
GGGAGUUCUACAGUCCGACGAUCUCCUGGGGCUUCCUGGUGGCUGUGACCAGUUGAGGGGCUGUUCCUGGGUGGGGUGGCAAUGGGAGGACAGGUCAGAGCGCCCUCAUUUGUGGGGCUGCCCCUCCGGGUUUUGGAAUUCUCGGGUGCCAA | 0.751
